# Experimental data pooled from the literature.
# Lines come from different studies, so protocols differ. “And” joins repeats or separate records; there may be more than shown.
# Cell line: HEK-293T
Structure (SMILES),test,system,setting,scale,quantity,value
NCCOCCOCCNC(=O)Cc1ccc(Nc2nc(NCc3ccc(F)cc3)nc(NCC3CCCCC3)n2)cc1,"cytotoxicity, CCK-8",,"48 h, 10% FBS",,IC50,58.9 µM
Cc1ncsc1-c1ccc(CNC(=O)[C@@H]2C[C@@H](O)CN2C(=O)[C@@H](NC(=O)COCc2cn(CCOCCOCCOc3cc(C(=O)c4cc(Cl)ccc4NS(=O)(=O)c4ccc(C(C)(C)C)cc4)cc[n+]3[O-])nn2)C(C)(C)C)cc1,CellTiter-Blue,,"0.1 to 2500 nM, 14 h",,cell viability,not toxic
Cc1nc(NCCOCCOCCNc2ncc(C(=O)NC3=NN(c4ccc(Cl)c(Cl)c4)CC3)c(C)n2)ncc1C(=O)NC1=NN(c2ccc(Cl)c(Cl)c2)CC1,cytotoxicity,,"72 h, 10% FBS",,EC50,> 3 µM
CC(=O)N[C@@H](Cc1c[nH]c2ccccc12)C(=O)N[C@@H](Cc1c[nH]c2ccccc12)C(=O)N[C@@H](Cc1c[nH]c2ccccc12)C(=O)N[C@@H](Cc1c[nH]c2ccccc12)C(=O)NCCCC[C@@H]1NC(=O)[C@H](CCCNC(=N)N)NC(=O)[C@H](CCCNC(=N)N)NC(=O)[C@H](CCCNC(=N)N)NC(=O)[C@H](CCCNC(=N)N)NC(=O)[C@H](CCCNC(=N)N)NC1=O,MTS,,"concentration not given, 24 h, up to 10 µM",,viability,≥ 86%
OB1c2sccc2C=NN1Cc1ccccc1,"cell growth or viability, MTT",,48 h,,IC50,> 100 µM
CC(=O)N[C@H](C(=O)N[C@H](C(=O)N[C@@H](CCCNC(=N)N)C(=O)N[C@@H](CC(N)=O)C(=O)N[C@@H](CC(=O)O)C(=O)N[C@H](C(=O)N1CCC[C@@H]1C(=O)N1CCC[C@H]1C(=O)N[C@@H](CC(=O)O)C(=O)N[C@@H](CO)C(=O)N[C@@H](CC(C)C)C(=O)N[C@@H](CC(C)C)C(=O)N[C@H](C(=O)N[C@@H](Cc1ccccc1)C(N)=O)C(C)C)C(C)C)[C@@H](C)O)C(C)C,subcellular fractionation LC-MS,nuclear fraction,"20 µM, 2 h",,peptide amount per protein,not detected
Cc1ccc(S(=O)(=O)N/N=C/c2ccsc2B(O)O)cc1,"cell growth or viability, MTT",,48 h,,IC50,> 100 µM
C=CS(=O)(=O)c1ccccc1,"cell growth or viability, MTT",,"12.5 µg/mL, 24 h",,viability,30 to 40%
CC(C)C[C@@H]1NC(=O)[C@H](CO)NC(=O)[C@H](CC(=O)O)NC(=O)[C@@H]2CCCN2C(=O)[C@H]2CCCN2C(=O)[C@H](C(C)C)NC(=O)[C@H](CC(=O)O)NC(=O)[C@H](CC(N)=O)NC(=O)[C@H](CCCNC(=N)N)NC(=O)[C@H]([C@@H](C)O)NC(=O)[C@H](C(C)C)NC(=O)CCNC(=O)CCNC(=O)[C@H](Cc2ccccc2)NC(=O)[C@H](C(C)C)NC(=O)[C@H](CC(C)C)NC1=O,subcellular fractionation LC-MS,nuclear fraction,"20 µM, 2 h",,peptide amount per protein,not detected
COc1cc(/C=C/C=C2\SC(=S)NC2=O)ccc1O,CellTiter-Glo,,"10 µM, 24 h, unit not given",reference: untreated,viability,1.03 and 0.982

# A few entries again:
Structure (SMILES),test,system,setting,scale,quantity,value
CC(C)C[C@@H]1NC(=O)[C@H](CO)NC(=O)[C@H](CC(=O)O)NC(=O)[C@@H]2CCCN2C(=O)[C@H]2CCCN2C(=O)[C@H](C(C)C)NC(=O)[C@H](CC(=O)O)NC(=O)[C@H](CC(N)=O)NC(=O)[C@H](CCCNC(=N)N)NC(=O)[C@H]([C@@H](C)O)NC(=O)[C@H](C(C)C)NC(=O)CCNC(=O)CCNC(=O)[C@H](Cc2ccccc2)NC(=O)[C@H](C(C)C)NC(=O)[C@H](CC(C)C)NC1=O,subcellular fractionation LC-MS,nuclear fraction,"20 µM, 2 h",,peptide amount per protein,not detected
